Results of several laboratories.
Protocols differ between the studies behind these lines. Values joined by “and” are separate records of one study, mostly repeats; a detail may differ. Numbers after ± are the reported error. Converted amounts (≈) assume the structure as drawn.

| Molecule | assay | test system | setting | how to read | quantity | value |
| --- | --- | --- | --- | --- | --- | --- |
| NC(=O)c1nc(F)c[nH]c1=O | UV-Vis spectrophotometry | supercritical CO2 | 120 min, 318 K, 12 MPa, 659.73 kg/m^3 | – | solubility | 87 µg/mL (≈ 554 µM) |
| Cc1c(P(=S)(c2ccccc2)c2ccccc2)n2ccccc2[n+]1C/C=C/c1ccccc1 | – | mouse, plasma | intraperitoneal, 10 mg/kg, 4 h | – | plasma concentration | 114 ng/mL |
| C[N+](C)(C)[C@@H](Cc1c[nH]c(=S)[nH]1)C(=O)[O-] | – | rat treated with 1,25-dihydroxyvitamin D3, brain | intravenous | baseline: untreated control rats | decrease in tissue partition coefficient | 39.4% |
| CC(=O)CO | – | human skin ex vivo | 500 µL infinite dose, 5% m/V, glycerol/water vehicle | – | steady-state flux | 58.3 ± 39.9 µg/cm²/h |
| CS(=O)(=O)CCCn1c(Cn2c(=O)n(CC(F)(F)F)c3ccncc32)cc2cc(Cl)ccc21 | – | RSV-infected infants | concentration not given, all dose cohorts | – | patients with low MCH | 11% |
| CC(C)C[C@H](NC(=O)[C@H](CCC(=O)O)NC(=O)[C@H](CCC(=O)O)NC(=O)[C@H](CC(=O)O)NC(=O)[C@H](CCC(=O)O)NC(=O)[C@H](CCC(=O)O)NC(=O)[C@H](CCC(=O)O)NC(=O)[C@@H](N)CC(=O)O)C(=O)O | – | rat, plasma | intravenous, 11.0 mg/kg, 90 min | – | concentration | 166 ng/mL |
| Oc1c(Cl)cc(Cl)c(Cl)c1Cc1c(O)c(Cl)cc(Cl)c1Cl | – | C57BL/6 mouse, brain | intravenous, 10 mg/kg, single dose | – | half-life | 5.64 h |
| O=S(=O)(O)C(F)(F)C(F)(F)C(F)(F)C(F)(F)C(F)(F)C(F)(F)F | LC-MS | C57BL/6J mouse female, plasma | drinking water, 2 mg/L each PFAS, 12 weeks | – | plasma concentration | 22000 ± 8300 ng/mL |
| CCCCCOc1ccc(-c2cc(-c3ccc(C(=O)N[C@H]4C[C@@H](O)[C@@H](O)NC(=O)[C@@H]5[C@@H](O)[C@@H](C)CN5C(=O)[C@H]([C@H](O)CC(N)=O)NC(=O)[C@H]([C@H](O)[C@@H](O)c5ccc(O)c(OS(=O)(=O)O)c5)NC(=O)[C@@H]5C[C@@H](O)CN5C(=O)[C@H]([C@@H](C)O)NC4=O)cc3)no2)cc1 | – | preterm neonates below 1000 g, plasma | intravenous, 15 mg/kg/day, repeated dosing, mean | – | clearance | 0.622 mL/min/kg |
| CCCCCOc1ccc(-c2ccc(-c3ccc(C(=O)N[C@H]4C[C@@H](O)[C@@H](O)NC(=O)[C@@H]5[C@@H](O)[C@@H](C)CN5C(=O)[C@H]([C@@H](C)O)NC(=O)[C@H]([C@H](O)[C@@H](O)c5ccc(O)cc5)NC(=O)[C@@H]5C[C@@H](O)CN5C(=O)[C@H]([C@@H](C)O)NC4=O)cc3)cc2)cc1 | – | adult patients | iv, dose not given, 3, during treatment | – | patients without hepatic or GI adverse events | 62% |
| CN[C@@](C)(C[18F])C(=O)O | – | SCID mouse U87 xenograft, liver | 15 min, post injection | – | tissue uptake | 9.3 ± 3.5 %ID/g |
| CC(=O)N[C@H](CCCCNC(=O)C(C)F)C(=O)N[C@@H](CS)C(=O)N[C@@H](CS)C(=O)N[C@@H](CCC(=O)O)C(=O)N[C@@H](Cc1c[nH]cn1)C(=O)N[C@H](Cc1ccccc1)C(=O)N[C@@H](CCCNC(=N)N)C(=O)N[C@@H](Cc1c[nH]c2ccccc12)C(=O)N[C@@H](CS)C(=O)N[C@@H](CCCNC(=N)N)C(=O)N1CCC[C@H]1C(=O)N[C@H](C(N)=O)C(C)C (stereo partly shown) [fluorine-18 labelled] | – | C57BL/6 mice, male, B16-F10 tumour, lung | intravenous, 4 h | – | tissue uptake | 0.31 ± 0.07 %ID/g |
| CN1CCC(Nc2ncc3ncnc(Nc4ccc(F)c(Cl)c4)c3n2)CC1 | – | Sprague-Dawley rat, male, liver S9 without NADPH | 1 µM, pH 7.4 | – | intrinsic clearance | 19 ± 3.17 mL/min/kg |
| O=c1oc2c(O)c(O)cc3c(=O)oc4c(O)c(O)cc1c4c23 | potentiometric titration | water, extrapolated from methanol/water | 25 °C | – | pKa1 | 3.63 |
| CCCCCOc1ccc(-c2ccc(-c3ccc(C(=O)N[C@H]4C[C@@H](O)[C@@H](OCC[N+](C)(C)C)NC(=O)[C@@H]5[C@@H](O)[C@@H](C)CN5C(=O)[C@H]([C@@H](C)O)NC(=O)[C@H]([C@H](O)[C@@H](O)c5ccc(O)cc5)NC(=O)[C@@H]5C[C@@H](O)CN5C(=O)[C@H]([C@@H](C)O)NC4=O)cc3)cc2)cc1 | – | healthy adult human, plasma | subcutaneous, 10 mg | – | terminal half-life | 188 h |
| [Met(O2)35]Aβ40 | electron microscopy | sodium phosphate buffer | 10 µM, pH 7.4, 25 °C, agitation 200 rpm | – | time to fibril formation | ≤ 96 h |
| CC[C@H](C)[C@H](NC(=O)[C@@H](N)CCCNC(=N)N)C(=O)N[C@H](C(=O)N1CCC[C@H]1C(=O)N[C@@H](C)C(N)=O)C(C)C | – | healthy volunteers, both sexes, plasma | intravenous infusion, 2.0 mg/kg, single ascending dose | – | Tmax | 4.4 ± 0.8 min |

| Molecule | assay | test system | setting | how to read | quantity | value |
| --- | --- | --- | --- | --- | --- | --- |
| CCCCCCCCCCCC[N+](C)(C)CCCCCCCCCCCC | in vitro-in vivo extrapolation | human | – | – | hepatic clearance | 0.488 mL/h/g liver |
| CC(=O)N[C@H](C(=O)N[C@@H](CO)C(=O)N[C@@H](CCCNC(=N)N)C(=O)N[C@@H](CCCNC(=N)N)C(=O)N[C@@H](CCCNC(=N)N)C(N)=O)C(C)C | – | healthy adults | intravenous infusion, 1 mg/kg every 6 h, over 30 min, minimum among subjects | baseline: dose 2 over dose 1 | AUC(tau) accumulation ratio | 0.9 |
| CC[C@@]1(O)C(=O)OCc2c1cc1n(c2=O)Cc2cc3c(CN(C)C)c(O)ccc3nc2-1 | – | human patients, plasma | oral, 2.5 mg daily for 5 days, day 5 cycle 1, geometric mean, alone | – | AUC(0-inf) | 48.7 ng·h/mL |
| ClC=C(Cl)Cl | – | human, venous blood | inhalation, 100 ppmv for 4 h | – | compartment 2 half-life | 8.8 h and 2.54 h and 0.679 h and 4.3 h |
| O=C(Nc1ccc(N2C(=O)[C@@H]3[C@H](C2=O)[C@@H]2C=C[C@H]3C2)c(Cl)c1)c1ccccn1 | – | rat, systemic plasma | oral, 10 mg/kg, HCl salt | – | AUC(0-6 h) | 0.858 µM·h |
| CCCCCOc1ccc(-c2ccc(-c3ccc(C(=O)N[C@H]4C[C@@H](O)[C@@H](O)NC(=O)[C@@H]5[C@@H](O)[C@@H](C)CN5C(=O)[C@H]([C@@H](C)O)NC(=O)[C@H]([C@H](O)[C@@H](O)c5ccc(O)cc5)NC(=O)[C@@H]5C[C@@H](O)CN5C(=O)[C@H]([C@@H](C)O)NC4=O)cc3)cc2)cc1 | – | human neonates, plasma | intravenous, 3 mg/kg loading dose, 24 h | – | trough concentration | 1900 ng/mL |
| [123I]c1cncc(OC[C@@H]2CCN2)c1 | SPECT | human, hippocampus | intravenous bolus, 7.35 mCi | baseline: tissue over plasma | tissue/plasma ratio | 35.5 |
| CC1(C)S[C@@H]2[C@H](NC(=O)[C@H](C(=O)O)c3ccsc3)C(=O)N2[C@H]1C(=O)O | – | rat plasma | 30 ng/mL, -20 °C to room temperature, three freeze-thaw cycles | – | measured concentration | 29.4 ± 1.4 ng/mL |
| Cc1cnc(C(=O)N[C@H]2CCCCC/C=C\[C@@H]3C[C@@]3(C(=O)NS(=O)(=O)C3CC3)NC(=O)[C@@H]3C[C@@H](Oc4nc5ccccc5c5ccccc45)CN3C2=O)cn1 | – | healthy human volunteers, plasma | oral, dose not given, added: pravastatin plus 2D regimen | – | AUC(0-24) | 1300 ng·h/mL |
| O[C@H]1CCCN[C@@H]1CCCn1cnc2c(Cl)c(Cl)ccc21 | – | healthy volunteers, urine | oral, 100 mg solution single, geometric mean | – | renal clearance (0-72 h) | 431 mL/min |
| CCCCCOc1ccc(-c2cc(-c3ccc(C(=O)N[C@H]4C[C@@H](O)[C@@H](O)NC(=O)[C@@H]5[C@@H](O)[C@@H](C)CN5C(=O)[C@H]([C@H](O)CC(N)=O)NC(=O)[C@H]([C@H](O)[C@@H](O)c5ccc(O)c(OS(=O)(=O)O)c5)NC(=O)[C@@H]5C[C@@H](O)CN5C(=O)[C@H]([C@@H](C)O)NC4=O)cc3)no2)cc1 | – | human paediatric patients 2 to 5 years, plasma | intravenous, 4.5 mg/kg once daily, day 7, mean | – | AUC(0-tau) | 249000 ng·h/mL |
| CCC1=C[C@@H]2CN(C1)Cc1c([nH]c3ccccc13)[C@@](C(=O)OC)(c1cc3c(cc1OC)N(C)[C@H]1[C@@](O)(C(=O)OC)[C@H](OC(C)=O)[C@]4(CC)C=CCN5CC[C@]31[C@@H]54)C2 | – | mice | – | – | NOAEL | 30 mg/m² |
| CSCC[C@@H]1NC(=O)[C@H](CC(=O)O)NC(=O)CNC(=O)[C@H](CCCNC(=N)N)NC(=O)[C@H](C)NC(=O)[C@H](CCC(=O)O)NC(=O)[C@H](CCCNC(=N)N)NC(=O)[C@@H]2CSSC[C@@H]3NC(=O)[C@H](CO)NC(=O)[C@H]([C@@H](C)O)NC(=O)[C@@H]4CCCN4C(=O)[C@H](C)NC(=O)[C@H](Cc4c[nH]c5ccccc45)NC(=O)[C@H](CC(=O)O)NC(=O)CNC(=O)[C@H](CCCNC(=N)N)NC(=O)CNC(=O)[C@H](CCC(N)=O)NC(=O)[C@@H]4CCCN4C(=O)[C@@H](NC(=O)CNC(=O)C(C)F)CSSC[C@H](NC(=O)CNC(=O)[C@H](C)NC(=O)[C@H](CC(C)C)NC(=O)[C@H](CSSC[C@@H](C(=O)NCC(N)=O)NC(=O)[C@H]([C@@H](C)O)NC(=O)[C@H](CCCNC(=N)N)NC(=O)[C@@H]4CCCN4C1=O)NC(=O)[C@H](CC(=O)O)NC(=O)[C@H](CO)NC(=O)[C@H](CC(=O)O)NC(=O)[C@H](CCC(N)=O)NC(=O)[C@H](CO)NC3=O)C(=O)N[C@@H](C(C)C)C(=O)N2 (stereo partly shown) [fluorine-18 labelled] | – | nude mouse, U-87 MG xenograft, spleen | intravenous, 2.5 h, added: cyclo(RGDyK) co-injected | – | tissue uptake | 0.24 ± 0.05 %ID/g |
| CCOC(=O)c1cncn1Cc1ccccc1 | serum corticosterone, inhibitor | Sprague-Dawley rat | intravenous, 15 min, 50% reduction, added: ACTH1-24 | – | ID50 | 2.7 ± 0.3 mg/kg |
| COc1cc2c(c(OC)c1OC)-c1ccc(OC)c(=O)cc1[C@@H](NC(C)=O)CC2 | – | human, male, plasma | oral, 10 mg, added: allopurinol 300 mg | baseline: combination over alone | AUC(0-24) ratio | 109% |
| CNC(=O)c1ccc(-c2cnn3ccc(C(=O)N(C)c4ccc(Cl)c(C(=O)OC)c4)cc23)cc1 | – | beagle dogs, both sexes, plasma | oral, 25 mg/kg/dose, 50 mg/kg/day, day 1 | – | Cmax | 29.4 ng/mL |
| COc1ccc(-c2cc(=O)c3c(OC)c(OC)c(OC)c(OC)c3o2)cc1OC | – | C57BL/6 mouse, male, brain | oral, 1% w/w in diet, 6 weeks, orange peel extract diet | baseline: content in orange peel | tissue to peel content ratio | 0.014% |
